Experimental data gathered from unrelated publications.
Every numbered part comes from another study and shows a few of its results, in no order. Positions count from the first letter of the parent shown.

Study 1 — target: inorganic phosphate, free oxyanion; technique: microfluidic competitive inhibition; sample: in vitro, cell-free expressed; tested at: not given; direction: lower = stronger binding
Setting: derived from inhibition constants, unchanged parent 615000 nM
Parent: PafA, mature enzyme, eGFP fusion (Elizabethkingia meningoseptica, UniProt Q9KJX5); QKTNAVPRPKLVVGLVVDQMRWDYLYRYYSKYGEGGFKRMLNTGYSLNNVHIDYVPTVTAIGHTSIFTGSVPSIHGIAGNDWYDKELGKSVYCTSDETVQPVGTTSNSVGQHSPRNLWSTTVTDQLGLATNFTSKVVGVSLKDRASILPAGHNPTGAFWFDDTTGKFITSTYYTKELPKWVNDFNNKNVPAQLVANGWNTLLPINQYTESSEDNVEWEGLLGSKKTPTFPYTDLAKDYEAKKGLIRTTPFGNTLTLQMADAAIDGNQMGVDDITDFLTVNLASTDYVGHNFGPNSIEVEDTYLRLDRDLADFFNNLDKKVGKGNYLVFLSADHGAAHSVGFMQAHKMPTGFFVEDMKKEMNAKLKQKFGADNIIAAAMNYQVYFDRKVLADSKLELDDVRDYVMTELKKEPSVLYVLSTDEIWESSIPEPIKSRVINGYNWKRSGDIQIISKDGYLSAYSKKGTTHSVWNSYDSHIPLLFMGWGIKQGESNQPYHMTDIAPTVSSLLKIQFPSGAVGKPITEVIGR
Change	phosphate dissociation constant
F328V	615 µM
R8V	616 µM
L128V	639 µM

Study 2 — technique: protein binding microarray; molecule type: double-stranded DNA, one strand shown; sample: in vitro; tested at: not given; relative to: not given; direction: higher = stronger binding
Target: Histone acetyltransferase KAT6A, winged helix 1, GST fusion (KAT6A, Homo sapiens, UniProt Q92794, residues 1-85)
Setting: 8-mer, flanks averaged, mean of 2 arrays, mostly near background
Residues (chain): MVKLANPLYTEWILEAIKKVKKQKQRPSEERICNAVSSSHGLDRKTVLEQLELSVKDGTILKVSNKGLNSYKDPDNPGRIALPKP
Oligonucleotide	E-score
GGACCCAA	-0.133
GGTGACTA	0.00136
CGGGGGCA	0.194
ATACTTCG	0.0494
CCAGAGCC	0.0377
CTGGTTAC	-0.071
TAGGCCTA	-0.245
CCAGGCCG	0.146

Study 3 — technique: RNA Bind-n-Seq; molecule type: RNA; sample: in vitro; tested at: 20 nM; setting: 6-mer, flanks averaged, single round; together with: 150 mM KCl; relative to: input library; direction: higher = stronger binding
Target: TAR DNA-binding protein 43, full length, His tag (TARDBP, Homo sapiens, UniProt Q13148, residues 1-414)
Oligonucleotide	6-mer enrichment (R)
GCACCG	0.972
ACUAGA	0.663
ACGUUU	0.607
GAGGCA	1.64
CACCGC	0.718
AUUCCG	0.609
UAUUUA	0.645
CCCGAU	0.634

Study 4 — target: CCND1, cyclin fold, Cln2 fusion (human); technique: yeast growth competition, sequencing; sample: yeast; setting: strong parent motif; relative to: not given; direction: higher = stronger binding; parent: viral docking peptide; KGVKRKLFAEDSS
Change	normalised enrichment score
L7K	0.36
K1A	1.21
E10A	0.571

A few entries again (study 2):
Oligonucleotide	E-score
TAGGCCTA	-0.245
CCAGGCCG	0.146
